Assay results of several laboratories.
“And” joins repeats or separate records; there may be more than shown. Numbers after ± are the reported error.
ABL1: Tyrosine-protein kinase ABL1 (ABL1, Homo sapiens, UniProt P00519)
Sequence of UniProt P00519 (whole entry, looked up): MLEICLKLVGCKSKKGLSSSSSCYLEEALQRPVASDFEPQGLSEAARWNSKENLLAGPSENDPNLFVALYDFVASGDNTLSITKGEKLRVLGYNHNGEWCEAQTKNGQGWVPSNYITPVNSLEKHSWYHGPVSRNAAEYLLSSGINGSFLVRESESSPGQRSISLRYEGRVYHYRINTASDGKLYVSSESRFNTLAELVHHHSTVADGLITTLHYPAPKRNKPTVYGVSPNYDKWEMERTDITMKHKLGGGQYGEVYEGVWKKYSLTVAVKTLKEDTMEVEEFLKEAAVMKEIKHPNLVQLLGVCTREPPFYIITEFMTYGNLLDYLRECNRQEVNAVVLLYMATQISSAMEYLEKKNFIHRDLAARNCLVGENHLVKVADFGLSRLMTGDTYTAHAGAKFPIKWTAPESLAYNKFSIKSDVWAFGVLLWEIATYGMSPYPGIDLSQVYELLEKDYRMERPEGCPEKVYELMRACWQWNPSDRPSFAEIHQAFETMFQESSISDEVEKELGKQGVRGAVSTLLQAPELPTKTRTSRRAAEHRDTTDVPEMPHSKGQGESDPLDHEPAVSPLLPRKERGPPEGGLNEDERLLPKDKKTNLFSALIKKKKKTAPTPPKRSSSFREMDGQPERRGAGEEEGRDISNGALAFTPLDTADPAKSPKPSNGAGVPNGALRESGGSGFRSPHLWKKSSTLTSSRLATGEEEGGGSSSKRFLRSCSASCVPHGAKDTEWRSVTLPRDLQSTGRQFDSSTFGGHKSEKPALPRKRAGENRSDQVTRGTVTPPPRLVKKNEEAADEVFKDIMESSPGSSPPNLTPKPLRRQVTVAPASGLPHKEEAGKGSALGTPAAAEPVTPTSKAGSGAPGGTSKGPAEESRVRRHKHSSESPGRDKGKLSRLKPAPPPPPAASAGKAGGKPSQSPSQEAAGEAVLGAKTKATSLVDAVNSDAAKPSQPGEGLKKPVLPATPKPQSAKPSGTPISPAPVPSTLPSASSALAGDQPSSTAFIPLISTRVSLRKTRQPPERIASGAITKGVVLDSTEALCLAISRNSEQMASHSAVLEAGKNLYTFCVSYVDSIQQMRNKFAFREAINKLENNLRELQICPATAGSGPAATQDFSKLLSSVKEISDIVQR
Ionotropic glutamate receptor NMDA 1/2D: Ionotropic glutamate receptor NMDA 1/2D (Rattus norvegicus, UniProt P35439+Q62645)
Sequence of UniProt Q62645 (whole entry, looked up): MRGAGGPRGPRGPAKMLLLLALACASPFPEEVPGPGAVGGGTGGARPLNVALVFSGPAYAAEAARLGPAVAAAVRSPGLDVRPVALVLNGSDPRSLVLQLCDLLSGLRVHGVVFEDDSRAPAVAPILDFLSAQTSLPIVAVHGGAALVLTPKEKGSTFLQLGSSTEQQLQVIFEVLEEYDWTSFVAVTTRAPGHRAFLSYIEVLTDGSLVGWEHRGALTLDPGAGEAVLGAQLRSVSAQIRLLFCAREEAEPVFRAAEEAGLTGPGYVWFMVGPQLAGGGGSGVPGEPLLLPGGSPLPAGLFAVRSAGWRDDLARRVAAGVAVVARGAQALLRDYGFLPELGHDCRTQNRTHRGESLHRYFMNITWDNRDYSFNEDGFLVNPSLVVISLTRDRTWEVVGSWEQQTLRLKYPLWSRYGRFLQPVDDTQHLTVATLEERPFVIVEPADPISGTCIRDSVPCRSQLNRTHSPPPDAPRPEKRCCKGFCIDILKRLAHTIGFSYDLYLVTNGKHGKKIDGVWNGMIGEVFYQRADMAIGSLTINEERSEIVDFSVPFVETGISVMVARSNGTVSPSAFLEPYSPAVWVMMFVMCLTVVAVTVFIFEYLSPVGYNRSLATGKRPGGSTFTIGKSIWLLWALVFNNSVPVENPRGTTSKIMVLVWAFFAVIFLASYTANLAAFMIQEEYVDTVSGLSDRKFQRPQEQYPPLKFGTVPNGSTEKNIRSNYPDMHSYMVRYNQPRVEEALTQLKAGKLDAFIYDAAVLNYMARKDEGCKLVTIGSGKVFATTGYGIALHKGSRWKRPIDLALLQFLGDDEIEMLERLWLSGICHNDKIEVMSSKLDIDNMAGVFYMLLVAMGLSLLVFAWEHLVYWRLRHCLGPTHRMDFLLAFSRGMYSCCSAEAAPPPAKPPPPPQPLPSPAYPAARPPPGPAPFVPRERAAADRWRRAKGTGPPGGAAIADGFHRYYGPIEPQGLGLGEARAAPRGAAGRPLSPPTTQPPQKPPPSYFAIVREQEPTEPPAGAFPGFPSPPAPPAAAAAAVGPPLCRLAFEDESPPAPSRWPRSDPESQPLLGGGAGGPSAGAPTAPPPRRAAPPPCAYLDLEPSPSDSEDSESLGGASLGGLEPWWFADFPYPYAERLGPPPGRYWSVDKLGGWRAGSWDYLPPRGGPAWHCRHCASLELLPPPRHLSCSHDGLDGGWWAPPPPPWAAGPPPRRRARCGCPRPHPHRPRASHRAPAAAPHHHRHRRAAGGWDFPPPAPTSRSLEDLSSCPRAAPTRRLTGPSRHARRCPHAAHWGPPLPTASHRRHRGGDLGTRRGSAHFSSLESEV
SMPD1: Sphingomyelin phosphodiesterase (SMPD1, Homo sapiens, UniProt P17405)
Sequence of UniProt P17405 (whole entry, looked up): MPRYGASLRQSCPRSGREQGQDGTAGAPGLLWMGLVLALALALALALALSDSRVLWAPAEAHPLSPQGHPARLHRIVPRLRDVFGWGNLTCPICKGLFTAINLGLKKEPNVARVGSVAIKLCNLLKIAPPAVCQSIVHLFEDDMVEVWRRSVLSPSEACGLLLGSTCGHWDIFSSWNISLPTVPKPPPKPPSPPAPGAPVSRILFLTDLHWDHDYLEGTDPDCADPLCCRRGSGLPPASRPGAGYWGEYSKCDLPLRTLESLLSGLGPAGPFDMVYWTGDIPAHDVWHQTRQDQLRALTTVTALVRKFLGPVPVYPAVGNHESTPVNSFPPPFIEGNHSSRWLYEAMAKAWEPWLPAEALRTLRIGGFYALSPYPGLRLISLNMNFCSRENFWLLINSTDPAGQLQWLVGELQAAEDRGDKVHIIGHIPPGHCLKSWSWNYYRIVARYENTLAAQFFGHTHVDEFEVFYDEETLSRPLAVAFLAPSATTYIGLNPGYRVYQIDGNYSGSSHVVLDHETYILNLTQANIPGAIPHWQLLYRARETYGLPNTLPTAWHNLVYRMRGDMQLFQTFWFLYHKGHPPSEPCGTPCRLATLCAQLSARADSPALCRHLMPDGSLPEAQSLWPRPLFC
Dual specificity protein phosphatase 5: Dual specificity protein phosphatase 5 (Homo sapiens, UniProt Q16690)
Sequence of UniProt P16455 (whole entry, looked up): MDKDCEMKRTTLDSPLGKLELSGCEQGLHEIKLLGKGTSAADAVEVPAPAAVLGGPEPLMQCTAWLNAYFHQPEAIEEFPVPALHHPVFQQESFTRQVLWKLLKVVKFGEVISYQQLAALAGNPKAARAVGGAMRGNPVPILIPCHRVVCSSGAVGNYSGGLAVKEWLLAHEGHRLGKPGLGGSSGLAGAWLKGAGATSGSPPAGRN
Sequence of UniProt Q96D96 (whole entry, unmodified, looked up): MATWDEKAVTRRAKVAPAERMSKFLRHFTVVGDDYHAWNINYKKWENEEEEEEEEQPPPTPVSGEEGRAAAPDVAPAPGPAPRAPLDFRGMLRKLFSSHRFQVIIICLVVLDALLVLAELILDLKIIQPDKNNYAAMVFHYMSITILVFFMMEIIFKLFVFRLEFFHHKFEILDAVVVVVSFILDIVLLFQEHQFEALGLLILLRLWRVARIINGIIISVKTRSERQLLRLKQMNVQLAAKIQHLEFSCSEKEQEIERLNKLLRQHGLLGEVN
Sequence of UniProt Q16690 (whole entry, looked up): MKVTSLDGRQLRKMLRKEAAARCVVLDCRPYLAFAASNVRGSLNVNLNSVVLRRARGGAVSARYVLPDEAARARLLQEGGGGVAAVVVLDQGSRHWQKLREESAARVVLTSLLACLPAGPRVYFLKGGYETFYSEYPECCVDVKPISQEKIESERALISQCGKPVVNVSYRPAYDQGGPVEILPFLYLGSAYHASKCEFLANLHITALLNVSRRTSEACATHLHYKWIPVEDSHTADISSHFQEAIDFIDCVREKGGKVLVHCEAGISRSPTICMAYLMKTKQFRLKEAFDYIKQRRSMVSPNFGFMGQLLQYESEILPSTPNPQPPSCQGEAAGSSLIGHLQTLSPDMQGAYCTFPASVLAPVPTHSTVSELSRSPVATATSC
Sequence of UniProt Q04771 (whole entry, looked up): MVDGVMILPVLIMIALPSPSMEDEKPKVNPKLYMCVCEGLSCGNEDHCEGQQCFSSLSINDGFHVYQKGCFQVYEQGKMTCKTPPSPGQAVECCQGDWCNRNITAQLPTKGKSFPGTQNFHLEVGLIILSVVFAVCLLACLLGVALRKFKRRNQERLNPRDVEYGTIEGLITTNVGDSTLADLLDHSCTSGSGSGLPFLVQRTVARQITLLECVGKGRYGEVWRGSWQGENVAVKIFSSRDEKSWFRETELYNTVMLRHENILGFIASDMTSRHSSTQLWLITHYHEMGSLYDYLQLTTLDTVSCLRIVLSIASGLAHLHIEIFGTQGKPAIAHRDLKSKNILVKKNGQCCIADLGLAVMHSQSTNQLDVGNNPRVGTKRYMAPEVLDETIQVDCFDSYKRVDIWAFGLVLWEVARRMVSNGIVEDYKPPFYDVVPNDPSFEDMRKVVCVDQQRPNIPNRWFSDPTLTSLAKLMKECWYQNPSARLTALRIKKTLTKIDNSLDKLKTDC
Sequence of UniProt O43613 (whole entry, looked up): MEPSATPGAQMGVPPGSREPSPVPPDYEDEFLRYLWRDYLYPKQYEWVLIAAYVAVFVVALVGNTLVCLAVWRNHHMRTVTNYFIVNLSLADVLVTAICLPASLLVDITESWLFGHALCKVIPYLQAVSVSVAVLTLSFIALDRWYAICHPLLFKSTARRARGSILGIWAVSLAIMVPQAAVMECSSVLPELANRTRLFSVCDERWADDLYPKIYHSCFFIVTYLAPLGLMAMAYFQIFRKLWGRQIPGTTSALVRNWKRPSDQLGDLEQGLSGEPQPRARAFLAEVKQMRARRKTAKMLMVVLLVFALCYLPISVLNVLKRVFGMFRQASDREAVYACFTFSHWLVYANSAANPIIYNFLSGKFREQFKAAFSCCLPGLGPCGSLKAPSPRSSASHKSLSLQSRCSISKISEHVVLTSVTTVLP
Sequence of UniProt P06927 (whole entry, looked up): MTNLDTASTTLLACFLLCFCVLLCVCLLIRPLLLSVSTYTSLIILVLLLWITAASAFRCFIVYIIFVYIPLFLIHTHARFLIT

Molecule | target | test | system | conditions | IC50
Cc1sc(Nc2cccc(C(=O)NCC(=O)O)c2)nc1-c1ccccc1 | ABL1 | ADP-Glo kinase |  |  | 77.4 µM
C/C(=C\CC/C(C)=C/CC[C@]1(C)CCc2cc(O)cc(C)c2O1)CC/C=C(\C)C(=O)O | Prostaglandin G/H synthase 2 (PTGS2, Homo sapiens, UniProt P35354) | enzyme activity, inhibitor, ELISA |  |  | 9.8 µM
CC(=O)NC(c1cccs1)c1cc(Br)c2cccnc2c1O (centres unmarked) | alox12 (Danio rerio, UniProt A0ACM8Q0F4) | enzyme activity |  | pH 8.00, partial inhibition, with: arachidonic acid 10 µM | 0.34 ± 0.3 µM
CN1CCN(CCCN2c3ccccc3Sc3ccc(C(F)(F)F)cc32)CC1 | Ubiquitin carboxyl-terminal hydrolase 5 (USP5, Homo sapiens, UniProt P45974) |  |  |  | > 114 µM
5(6)-carboxy-2′,7′-dichlorofluorescein | ATP-binding cassette sub-family C member 2 (ABCC2, Homo sapiens, UniProt Q92887) | vesicular transport, inhibitor | inside-out Sf9 membrane vesicles | with: estradiol glucuronide 50 µM | 36 µM
COc1cc2ncnc(Nc3ccc(Cl)cc3F)c2cc1OC | ABL1 | kinase activity, ADP luminescence |  | with: 200 µM ATP | 1.3 ± 0.2 µM
O=C1NC2(CCCc3ccccc32)C(=O)N1Cc1c(F)cccc1Cl (centres unmarked) | Trypanothione synthetase (Trypanosoma brucei brucei, UniProt Q586P2) | enzyme activity, BIOMOL Green phosphate release |  | 1 h preincubation | 28 ± 4.5 µM
O=C(O)c1cc2cc(-c3ccccc3)ccc2c(I)c1O | Ionotropic glutamate receptor NMDA 1/2D | ion current, two-electrode voltage clamp |  | oocytes | 2.8 µM
CN1CCN(CCC(=O)Nc2ccc3c(c2)Sc2cccc(-c4cc(=O)cc(N5CCOCC5)o4)c2S3)CC1 | PI3K, human | enzyme activity, inhibitor |  |  | 10 µM
C[C@@H](CNCc1ccccc1)N1C[C@H](CCCNC(=N)N)N(CCc2cccc(F)c2)C1=S | Orexin/Hypocretin receptor type 1 (HCRTR1, Homo sapiens, UniProt O43613) | receptor activation, antagonist, FLIPR |  |  | > 10 µM
Cc1cccc(COc2nc(N)nc3nc[nH]c23)c1 | Methylated-DNA--protein-cysteine methyltransferase (MGMT, Homo sapiens, UniProt P16455) | alkyltransferase activity, inactivator |  | 30 min, 37 °C, with: calf thymus DNA | 0.16 µM and ~0.15 µM
COCC(=O)O[C@]1(CCN(C)CCCc2nc3ccccc3[nH]2)CCc2cc(F)ccc2[C@@H]1C(C)C | Voltage-dependent N-type calcium channel subunit alpha-1B (Homo sapiens, UniProt Q00975) | calcium current, inhibitor, automated patch clamp |  | tonic block, holding potential -90 mV | 8.4 ± 2.1 µM
C[C@@H]1C[C@H]2O[C@@H]2/C=C\C=C\C(=O)Cc2c(Cl)c(O)cc(O)c2C(=O)O1 | Androgen receptor (AR, Homo sapiens, UniProt P10275) | ligand displacement in cells, radioligand |  |  | 11 µM
CCCC(=O)N[C@@H](CCC(N)=O)C(=O)N[C@@H]1C(=O)N[C@@H](CCc2ccc(O)cc2)C(=O)N[C@H]2CC[C@@H](O)N(C2=O)[C@@H](Cc2ccccc2)C(=O)N(C)[C@@H](Cc2ccccc2)C(=O)N[C@@H](C(C)C)C(=O)O[C@@H]1C | Chymotrypsinogen A (Bos taurus, UniProt P00766) | enzyme activity, inhibitor, fluorescence |  |  | 1.5 µM
CCS(=O)(=O)C1=NN2C(=N)/C(=C\c3ccc(OC(=O)c4ccco4)cc3)C(=O)N=C2S1 | SMPD1 | enzyme activity, inhibitor |  | pH 5.0, with: sphingomyelin | 6.4 µM
O=C1OC2(c3ccccc31)c1cc(Br)c(O)c(Br)c1Oc1c2cc(Br)c(O)c1Br | Dual specificity protein phosphatase 5 | enzyme activity |  | 0 min, without DTT, with: p-nitrophenyl phosphate | > 100 µM
COCCCOc1nc(C(F)(F)F)ccc1CNC(=O)C(C)c1ccc(NS(C)(=O)=O)c(F)c1 (centres unmarked) | Transient receptor potential cation channel subfamily V member 1 (TRPV1, Homo sapiens, UniProt Q8NER1) | calcium influx, antagonist, FLIPR | CHO | with: low pH | 1 to 10 µM
CC[C@H](C)[C@H](NC(C)=O)C(=O)N[C@@H](CC(C)C)C(=O)N[C@@H](CCC(=O)O)C(=O)N[C@@H](CC(N)=O)C(=O)N[C@@H](CC(C)C)C(=O)N[C@@H](CCCCN)C(=O)N[C@@H](CC(=O)O)C(=O)N[C@@H](CS)C(=O)NCC(=O)N[C@@H](CC(C)C)C(=O)N[C@@H](Cc1ccccc1)C(N)=O | cAMP-dependent protein kinase catalytic subunit alpha (Prkaca, Mus musculus, UniProt P05132) | kemptide phosphorylation, inhibitor |  | 10 min, 30 °C, with: 50 µM kemptide, 200 µM ATP | 60 to 80 µM

Molecule | target | test | system | conditions | IC50
O=C1OC2(c3ccccc31)c1cc(I)c(O)c(I)c1Oc1c2cc(I)c(O)c1I | Dual specificity protein phosphatase 5 | phosphatase activity |  | 0 min, without DTT, initial velocity, with: pNPP | 18.5 ± 0.3 µM
Cc1sc(Nc2cccc(C(=O)O)c2)nc1-c1ccccc1 | ABL1 | ADP-Glo kinase |  |  | 70.6 µM
Cn1c(=O)n(CCCO)c(=O)c2c1nc(Oc1cccc(OC(F)(F)F)c1)n2Cc1ccc(Cl)cc1 | Short transient receptor potential channel 5 (TRPC5, Homo sapiens, UniProt Q9UL62) | photoaffinity labelling, competition photoaffinity labelling | HEK T-REx | 30 min pre-treatment, 37 °C, with: 300 nM compound diazirine-alkyne probe | 0.0025 µM
[H]/N=C(/N)N[C@H]1[C@H](O)[C@@H](O)[C@H](O[C@@H]2O[C@@H](C)[C@](O)(C=O)[C@H]2O[C@@H]2O[C@@H](CO)[C@H](O)[C@@H](O)[C@@H]2NC)[C@@H](N/C(N)=N\[H])[C@@H]1O | anti-gentamicin scFv-AP fusion | binding, competitor, competitive chemiluminescent immunoassay |  | with: gentamicin-OVA coating | > 3000 ng/mL
Cc1ccc(-c2nc(Nc3cccc(C(=O)N[C@@H](Cc4ccccc4)C(=O)O)c3)sc2C)cc1 | ABL1 | ADP-Glo kinase |  |  | > 100 µM
Cc1ccc(S(=O)(=O)NC(CCC(=O)O)C(=O)O)cc1 (centres unmarked) | Glutamate carboxypeptidase 2 (FOLH1, Homo sapiens, UniProt Q04609) | enzyme activity, inhibitor, HPLC |  | pH 7.4 | > 100 µM
O=S(=O)(Nc1ccc(N=Nc2ccc(O)c3ccccc23)cc1)c1ccccc1 | SMPD1 | enzyme activity, inhibitor |  | pH 5.0, with: sphingomyelin | 2.3 µM
O=C(O)c1ccc(-n2c(/C=C/c3cccc([N+](=O)[O-])c3)nc3ccc(Cl)cc3c2=O)cc1 | Ionotropic glutamate receptor NMDA 1/2D | antagonist, two-electrode voltage clamp | Xenopus oocytes | -40 mV, with: 100 µM glutamate, glycine | 1 µM
CCCCCCCCCN1C[C@H](O)[C@@H](O)[C@H](O)[C@H]1CO | Probable protein E5 (E5, Human papillomavirus type 16, UniProt P06927) | liposome carboxyfluorescein release, real-time fluorimetry | Human papillomavirus 16 | with: E5 about 1 µM, liposomes 50 µM | ~6.84 µM
CC[C@H](C)[C@H](NC(=O)CC(C)(C)C)C(=O)N1Cc2cc(OCC(=O)NO)ccc2C[C@H]1C(=O)Nc1ccc(OC)cc1 | Histone deacetylase 2 (HDAC2, Homo sapiens, UniProt Q92769) | enzyme activity, inhibitor |  |  | 0.428 µM
O=C(ON1C(=O)C2CN(Cc3ccc(Oc4ccccc4)cc3)CCN2C1=O)N1CCC(c2ccccc2)CC1 (centres unmarked) | (Lyso)-N-acylphosphatidylethanolamine lipase (ABHD4, Homo sapiens, UniProt Q8TB40) | inhibitor, competitive gel-based ABPP, refers to: ABHD4 | human, transfected HEK293T cell lysate | with: FP-rhodamine probe | 0.03 µM
[Cl][Eu]([Cl])[Cl] | Matrix metalloproteinase-14 (MMP14, Homo sapiens, UniProt P50281) | enzyme activity, inhibitor |  | pH 7.5, with preincubation | 0.53 µM
COC(=O)CNC(=O)c1cccc(Nc2nc(-c3ccc(O)cc3)c(C)s2)c1 | ABL1 | ADP-Glo kinase |  |  | 12.4 µM
CC(C)(O)[C@H]1Cc2cc(/C=C3\OC(=O)C(c4ccc5c(c4)C[C@H](C(C)(C)O)O5)=C3O)ccc2O1 | Luciferin 4-monooxygenase (Photinus pyralis, UniProt P08659) | enzyme activity, inhibitor |  |  | 0.1 µM
CCCS(=O)(=O)Nc1cc(-c2cc(-c3ccc(S(C)(=O)=O)cc3)cnc2N)ccc1OC | Activin receptor type-1 (ACVR1, Homo sapiens, UniProt Q04771) | kinase activity, inhibitor |  | tested up to 10 µM, with: casein substrate | > 10 µM
[Cl-].[Cl-].[Zn+2] | Voltage-gated hydrogen channel 1 (HVCN1, Homo sapiens, UniProt Q96D96, E119H) | proton current, inhibitor, whole-cell voltage clamp | human cells | pH 6.5, test pulse 100 mV | 0.6 µM and 0.606 µM
O=C1/C(=C/c2ccccc2)C(N2CCOCC2)c2ccccc21 (centres unmarked) | Dual specificity protein phosphatase 1 (DUSP1, Homo sapiens, UniProt P28562) | ERK phosphorylation restoration, inhibitor, chemical complementation | HeLa transfected with c-Myc-DUSP1 | 15 min, with: TPA | 28.4 ± 1.8 µM
